Results of several laboratories.
Every numbered part comes from another study and shows a few of its results, in no order.
Sequence of UniProt P49761 (whole entry, looked up): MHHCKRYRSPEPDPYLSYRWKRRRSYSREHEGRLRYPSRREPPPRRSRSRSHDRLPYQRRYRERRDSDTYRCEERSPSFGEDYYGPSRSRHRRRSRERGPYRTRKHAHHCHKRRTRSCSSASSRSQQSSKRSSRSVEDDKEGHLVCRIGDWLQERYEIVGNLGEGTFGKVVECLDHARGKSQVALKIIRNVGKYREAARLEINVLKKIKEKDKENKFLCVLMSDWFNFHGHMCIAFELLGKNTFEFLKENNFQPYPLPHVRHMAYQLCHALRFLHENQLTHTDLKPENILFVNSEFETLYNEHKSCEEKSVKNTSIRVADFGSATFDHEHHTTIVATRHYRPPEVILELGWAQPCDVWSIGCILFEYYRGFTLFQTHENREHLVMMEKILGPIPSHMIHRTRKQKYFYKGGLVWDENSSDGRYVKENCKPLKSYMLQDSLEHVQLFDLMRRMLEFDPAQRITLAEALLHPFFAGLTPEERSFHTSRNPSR
Sequence of UniProt P32298 (whole entry, looked up): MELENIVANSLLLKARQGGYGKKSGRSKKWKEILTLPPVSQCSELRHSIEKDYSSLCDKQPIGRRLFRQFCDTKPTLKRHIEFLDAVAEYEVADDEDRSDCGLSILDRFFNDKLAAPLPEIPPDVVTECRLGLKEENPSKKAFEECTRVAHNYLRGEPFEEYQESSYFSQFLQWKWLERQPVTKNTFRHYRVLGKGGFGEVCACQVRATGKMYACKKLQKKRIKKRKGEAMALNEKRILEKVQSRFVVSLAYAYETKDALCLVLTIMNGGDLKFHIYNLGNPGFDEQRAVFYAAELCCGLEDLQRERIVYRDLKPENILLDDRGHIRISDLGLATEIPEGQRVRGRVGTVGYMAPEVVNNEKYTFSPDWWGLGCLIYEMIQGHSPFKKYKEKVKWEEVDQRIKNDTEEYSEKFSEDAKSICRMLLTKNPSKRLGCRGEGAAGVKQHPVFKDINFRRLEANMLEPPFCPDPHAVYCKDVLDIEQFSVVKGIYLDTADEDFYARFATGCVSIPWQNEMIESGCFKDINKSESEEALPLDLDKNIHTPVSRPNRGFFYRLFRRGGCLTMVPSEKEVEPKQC
Sequence of UniProt O75676 (whole entry, looked up): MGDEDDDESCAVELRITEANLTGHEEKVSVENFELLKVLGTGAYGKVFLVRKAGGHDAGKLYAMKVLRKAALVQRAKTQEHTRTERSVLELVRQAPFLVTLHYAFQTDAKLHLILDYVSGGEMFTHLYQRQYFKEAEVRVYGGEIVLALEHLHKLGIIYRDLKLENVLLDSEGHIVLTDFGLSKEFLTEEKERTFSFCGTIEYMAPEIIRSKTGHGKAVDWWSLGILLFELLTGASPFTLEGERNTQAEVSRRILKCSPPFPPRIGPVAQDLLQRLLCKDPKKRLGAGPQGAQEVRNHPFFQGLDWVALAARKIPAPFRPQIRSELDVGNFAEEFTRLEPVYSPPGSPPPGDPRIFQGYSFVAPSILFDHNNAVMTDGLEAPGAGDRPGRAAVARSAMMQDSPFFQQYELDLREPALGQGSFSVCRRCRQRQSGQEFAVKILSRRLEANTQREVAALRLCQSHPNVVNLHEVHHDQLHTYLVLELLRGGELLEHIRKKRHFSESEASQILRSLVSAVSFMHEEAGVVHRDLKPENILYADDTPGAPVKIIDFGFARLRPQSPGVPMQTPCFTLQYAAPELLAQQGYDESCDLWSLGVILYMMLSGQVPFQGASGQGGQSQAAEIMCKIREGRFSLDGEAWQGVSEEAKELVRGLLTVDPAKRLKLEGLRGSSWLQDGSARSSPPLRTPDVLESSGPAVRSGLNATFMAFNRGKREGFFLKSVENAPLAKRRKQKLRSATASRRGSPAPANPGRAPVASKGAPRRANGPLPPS
Sequence of UniProt Q9Y5S2 (whole entry, looked up): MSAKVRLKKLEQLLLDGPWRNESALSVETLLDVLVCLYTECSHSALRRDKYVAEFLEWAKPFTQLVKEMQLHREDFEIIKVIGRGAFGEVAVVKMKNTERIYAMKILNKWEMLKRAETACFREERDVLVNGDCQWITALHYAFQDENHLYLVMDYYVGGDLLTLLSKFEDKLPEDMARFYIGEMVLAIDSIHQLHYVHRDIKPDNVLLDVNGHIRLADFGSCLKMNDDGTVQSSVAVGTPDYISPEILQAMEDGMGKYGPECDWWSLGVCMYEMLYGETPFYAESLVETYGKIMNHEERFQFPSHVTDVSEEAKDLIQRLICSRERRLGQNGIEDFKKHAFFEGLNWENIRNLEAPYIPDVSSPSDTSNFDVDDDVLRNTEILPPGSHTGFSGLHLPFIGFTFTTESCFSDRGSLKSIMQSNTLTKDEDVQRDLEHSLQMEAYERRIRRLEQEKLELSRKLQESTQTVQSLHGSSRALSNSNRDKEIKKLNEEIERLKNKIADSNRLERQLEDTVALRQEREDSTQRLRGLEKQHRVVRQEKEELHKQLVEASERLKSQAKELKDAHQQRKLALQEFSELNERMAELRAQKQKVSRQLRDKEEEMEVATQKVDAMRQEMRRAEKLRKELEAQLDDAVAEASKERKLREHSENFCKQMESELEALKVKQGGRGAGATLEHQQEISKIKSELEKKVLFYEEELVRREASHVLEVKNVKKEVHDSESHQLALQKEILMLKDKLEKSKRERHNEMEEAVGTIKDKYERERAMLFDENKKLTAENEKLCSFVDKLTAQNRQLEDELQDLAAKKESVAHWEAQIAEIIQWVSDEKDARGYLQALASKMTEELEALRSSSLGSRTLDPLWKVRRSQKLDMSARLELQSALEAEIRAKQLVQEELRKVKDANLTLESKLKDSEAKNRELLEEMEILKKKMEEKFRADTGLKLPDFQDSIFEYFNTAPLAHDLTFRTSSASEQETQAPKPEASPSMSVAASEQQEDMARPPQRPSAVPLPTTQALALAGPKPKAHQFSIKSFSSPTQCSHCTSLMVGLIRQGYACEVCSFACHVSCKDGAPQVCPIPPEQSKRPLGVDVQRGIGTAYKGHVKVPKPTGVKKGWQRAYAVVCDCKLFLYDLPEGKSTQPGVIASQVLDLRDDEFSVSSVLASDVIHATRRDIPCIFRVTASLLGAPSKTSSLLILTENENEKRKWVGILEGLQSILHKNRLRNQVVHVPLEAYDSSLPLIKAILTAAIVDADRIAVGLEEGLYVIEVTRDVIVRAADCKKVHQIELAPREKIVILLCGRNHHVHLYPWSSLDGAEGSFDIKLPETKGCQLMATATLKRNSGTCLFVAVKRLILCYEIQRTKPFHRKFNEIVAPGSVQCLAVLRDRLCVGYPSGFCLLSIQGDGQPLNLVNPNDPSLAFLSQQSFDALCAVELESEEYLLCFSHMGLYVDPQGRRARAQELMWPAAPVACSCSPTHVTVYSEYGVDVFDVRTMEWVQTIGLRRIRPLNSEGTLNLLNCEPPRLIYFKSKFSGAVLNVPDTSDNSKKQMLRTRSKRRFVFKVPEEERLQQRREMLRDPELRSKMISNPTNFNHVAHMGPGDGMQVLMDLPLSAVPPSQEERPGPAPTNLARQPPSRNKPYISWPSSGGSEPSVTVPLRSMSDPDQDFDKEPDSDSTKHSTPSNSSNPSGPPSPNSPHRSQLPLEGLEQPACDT
Sequence of UniProt P06493 (whole entry, looked up): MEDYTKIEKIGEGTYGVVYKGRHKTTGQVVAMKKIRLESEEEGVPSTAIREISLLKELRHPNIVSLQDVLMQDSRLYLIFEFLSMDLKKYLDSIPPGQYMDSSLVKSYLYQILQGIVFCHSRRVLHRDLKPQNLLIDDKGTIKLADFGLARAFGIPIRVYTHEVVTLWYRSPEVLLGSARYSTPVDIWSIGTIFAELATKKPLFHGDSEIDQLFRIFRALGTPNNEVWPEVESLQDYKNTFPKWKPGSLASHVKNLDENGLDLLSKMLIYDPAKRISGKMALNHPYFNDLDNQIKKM
Sequence of UniProt P42681 (whole entry, looked up): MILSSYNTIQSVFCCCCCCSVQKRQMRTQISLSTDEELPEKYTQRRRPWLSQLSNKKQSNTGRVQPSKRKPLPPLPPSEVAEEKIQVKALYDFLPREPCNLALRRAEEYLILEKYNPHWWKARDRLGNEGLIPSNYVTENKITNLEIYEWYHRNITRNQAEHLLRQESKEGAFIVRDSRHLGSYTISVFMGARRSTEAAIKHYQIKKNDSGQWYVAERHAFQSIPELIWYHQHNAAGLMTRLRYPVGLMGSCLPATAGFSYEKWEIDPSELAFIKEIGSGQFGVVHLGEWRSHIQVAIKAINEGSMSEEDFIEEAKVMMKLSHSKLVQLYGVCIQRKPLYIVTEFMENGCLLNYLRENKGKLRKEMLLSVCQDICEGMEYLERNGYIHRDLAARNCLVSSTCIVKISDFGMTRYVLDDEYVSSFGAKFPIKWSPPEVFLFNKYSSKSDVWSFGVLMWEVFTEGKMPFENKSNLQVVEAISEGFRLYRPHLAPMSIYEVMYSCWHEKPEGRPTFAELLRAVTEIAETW

Sample 1
Target: Synaptic vesicular amine transporter (SLC18A2, Homo sapiens, UniProt Q05940)
Sequence of UniProt Q05940 (whole entry, looked up): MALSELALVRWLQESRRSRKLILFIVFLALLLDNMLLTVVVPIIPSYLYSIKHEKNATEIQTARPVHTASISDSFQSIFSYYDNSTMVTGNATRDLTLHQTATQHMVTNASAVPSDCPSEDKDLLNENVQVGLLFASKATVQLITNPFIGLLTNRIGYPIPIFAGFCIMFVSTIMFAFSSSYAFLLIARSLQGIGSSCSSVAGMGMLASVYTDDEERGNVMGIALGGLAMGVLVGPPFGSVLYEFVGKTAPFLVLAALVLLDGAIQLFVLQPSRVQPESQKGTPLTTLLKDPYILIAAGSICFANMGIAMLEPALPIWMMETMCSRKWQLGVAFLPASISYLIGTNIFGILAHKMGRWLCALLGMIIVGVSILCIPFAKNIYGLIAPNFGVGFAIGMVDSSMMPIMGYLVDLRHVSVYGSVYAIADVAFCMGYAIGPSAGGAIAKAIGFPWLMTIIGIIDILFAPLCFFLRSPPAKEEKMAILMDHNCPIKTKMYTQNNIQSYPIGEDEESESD
Observed: transporter uptake
Mode: inhibitor
Technique: radiometric
Notes: cell membranes
Measurement: IC50
Compound = COc1cc(C(C)=O)ccc1OCCCN1CCC(c2noc3cc(F)ccc23)CC1; value = 186 nM
Compound = O=c1[nH]c2ccccc2n1CCN1CCN(c2cccc(C(F)(F)F)c2)CC1; value = 126 nM
Compound = Cc1cc(Nc2ncc(Cl)c(Nc3ccccc3S(=O)(=O)C(C)C)n2)c(OC(C)C)cc1C1CCNCC1; value = 1000 nM
Compound = CN(C)C/C=C/C(=O)Nc1cc2c(Nc3ccc(F)c(Cl)c3)ncnc2cc1O[C@H]1CCOC1; value = 540 nM
Compound = O=c1ccc2ccc(OCCCCN3CCN(c4cccc5sccc45)CC3)cc2[nH]1; value = 22 nM

Sample 2
Host: mouse
Medium: microsomes or S9
Concentration: 2 µM
Time: 0.5 h
Measurement: remaining compound
Compound = COc1nc([N+](=O)[O-])cn1CC(OCc1ccc(F)cc1)c1ccc(F)cc1F (stereo not drawn); value = 0.501%
Compound = O=C(Nc1c(C(c2ccc(Cl)cc2)N2CCN(CCO)CC2)oc2ccccc12)c1cccs1 (stereo not drawn); value = 19%
Compound = O=C(O)CCN(C(=O)c1cc2c(s1)CCCC2)C1CCOCC1; value = > 100%
Compound = CCN(Cc1cccc(F)c1)C(=O)c1occc1CS(=O)(=O)c1ccccc1; value = 0.422%
Compound = Cn1c2ccccc2n2c(=O)n(Cc3cscn3)nc12; value = 67%
Compound = CN1C(=O)C(O)(C2OC(C)(C)CCC2=O)c2ccccc21 (stereo not drawn); value = 34.9%
Compound = Cc1cc(C)c(S(=O)(=O)NCCc2cc3c(C)ccc(C)c3[nH]c2=O)c(C)c1; value = 74.9%
Compound = COC(=O)CC(c1c(O)cc(C)n(CCc2ccc(O)cc2)c1=O)c1cnn2cccnc12 (stereo not drawn); value = 9.35%

Sample 3
Structure (SMILES): Cc1c(NC(=O)c2cc(C(N)=O)nc3cc(F)ccc23)c(C(F)(F)F)nn1Cc1ccc(C(C)(C)C)cc1
Observed: cell-free assay
Technique: competition with immobilised ligand
Concentration: 1 µM
Measurement: remaining binding
target = Mitogen-activated protein kinase kinase kinase kinase 5 (MAP4K5, Homo sapiens, UniProt Q9Y4K4); value = 92%
target = Tyrosine-protein kinase ABL1, phosphorylated (ABL1, Homo sapiens, UniProt P00519, M351T); value = 100%
target = Epidermal growth factor receptor (EGFR, Homo sapiens, UniProt P00533, G719S); value = 78%
target = TRAF2 and NCK-interacting protein kinase (TNIK, Homo sapiens, UniProt Q9UKE5); value = 98%
target = Phosphatidylinositol 4-phosphate 3-kinase C2 domain-containing subunit beta (PIK3C2B, Homo sapiens, UniProt O00750); value = 86%
target = Mitogen-activated protein kinase kinase kinase 14 (MAP3K14, Homo sapiens, UniProt Q99558); value = 100%
target = Phosphatidylinositol 4,5-bisphosphate 3-kinase catalytic subunit alpha isoform (PIK3CA, Homo sapiens, UniProt P42336, H1047Y); value = 89%
target = Casein kinase I isoform alpha (CSNK1A1, Homo sapiens, UniProt P48729); value = 94%
target = Mast/stem cell growth factor receptor Kit (KIT, Homo sapiens, UniProt P10721, V559D/V654A); value = 98%
target = Serine/threonine-protein kinase TAO1 (TAOK1, Homo sapiens, UniProt Q7L7X3); value = 100%

Sample 4
Structure (SMILES): c1ccc(-c2n[nH]c3c2oc2ccccc23)cc1
Observed: enzyme activity
Mode: inhibitor
Concentration: 0.5 µM
Relative to: control
Measurement: remaining activity
target = Dual specificity mitogen-activated protein kinase kinase 1 (MAP2K1, Homo sapiens, UniProt Q02750); value = 96.4%
target = Serine/threonine-protein kinase PAK 3 (PAK3, Homo sapiens, UniProt O75914); value = 89.2%
target = Cyclin-dependent kinase 1, with cyclin A (CDK1, Homo sapiens, UniProt P06493); value = 94.1%
target = Serine/threonine-protein kinase DCLK2 (DCLK2, Homo sapiens, UniProt Q8N568); value = 90.2%
target = Ribosomal protein S6 kinase alpha-4 (RPS6KA4, Homo sapiens, UniProt O75676); value = 90.2%
target = Tyrosine-protein kinase TXK (TXK, Homo sapiens, UniProt P42681); value = 81.5%
target = Serine/threonine-protein kinase MRCK beta (CDC42BPB, Homo sapiens, UniProt Q9Y5S2); value = 99%
target = Calcium/calmodulin-dependent protein kinase type 1B (PNCK, Homo sapiens, UniProt Q6P2M8); value = 98.6%
target = cGMP-dependent protein kinase 2 (PRKG2, Homo sapiens, UniProt Q13237); value = 109%
target = Rho-associated protein kinase 1 (ROCK1, Homo sapiens, UniProt Q13464); value = 99.1%
target = Serine/threonine-protein kinase PLK3 (PLK3, Homo sapiens, UniProt Q9H4B4); value = 99.2%
target = G protein-coupled receptor kinase 4 (GRK4, Homo sapiens, UniProt P32298); value = 110%
target = Dual specificity protein kinase CLK3 (CLK3, Homo sapiens, UniProt P49761); value = 91%

A few entries again (sample 4):
target = Tyrosine-protein kinase TXK (TXK, Homo sapiens, UniProt P42681); value = 81.5%
target = Serine/threonine-protein kinase MRCK beta (CDC42BPB, Homo sapiens, UniProt Q9Y5S2); value = 99%
target = Calcium/calmodulin-dependent protein kinase type 1B (PNCK, Homo sapiens, UniProt Q6P2M8); value = 98.6%
target = cGMP-dependent protein kinase 2 (PRKG2, Homo sapiens, UniProt Q13237); value = 109%
